Measurements pooled from the literature.
Each line is one published result; not all experiments were run side by side. ± gives the spread as reported.

| SMILES | cell line | assay | test system | setting | how to read | endpoint | result |
| --- | --- | --- | --- | --- | --- | --- | --- |
| COC(=O)C1=CO[C@@H](OC(C)=O)[C@@H]2C(Cn3cc(CCO[Si](C)(C)C(C)(C)C)nn3)=CC[C@H]12 | SK-N-SH | neuroprotection, MTT |  | 0.6 µM, 24 h, with: 250 µM H2O2 |  | viability | 56.6 ± 0.2% |
| CC(C)CC(O)(CC(C)C)c1cn(C(=O)N2CCCC2)nn1 | mouse T-cells | SILAC proteomics, refers to: EFHD2 |  | 1 nM, 6 h, unit not given | reference: DMSO | protein level | 0.99 ± 0.14 |
| Nc1ccc(Nc2c(NC3CCN(Cc4ccccc4)CC3)c(=O)c2=O)cc1 | SH-SY5Y | neuroprotection, MTT |  | 12.5 µM, 24 h pretreatment, with: H2O2 650 µM for 4 h |  | cell survival | 80.1% |
| CSCC[C@H](NC(=O)[C@H](CC(C)C)NC(=O)[C@H](Cc1c[nH]cn1)NC(=O)CNC(=O)[C@@H](NC(=O)[C@H](C)NC(=O)[C@H](Cc1c[nH]c2ccccc12)NC(=O)[C@H](CCC(N)=O)NC(=O)CCCCCNC(=O)CCN(CCNC(=O)c1ccc(F)cc1)CCC(=O)NCCCC[C@@H]1NC(=O)[C@@H](Cc2ccc(O)cc2)NC(=O)[C@H](CC(=O)O)NC(=O)CNC(=O)[C@H](CCCNC(=N)N)NC1=O)C(C)C)C(N)=O [fluorine-18 labelled] | PC-3 | refers to: radioactivity | serum-free medium | 2 h |  | efflux | ~50% |
| CCCCCCCCCCOCc1cn(CC2=CC[C@@H]3C(C(=O)OC)=CO[C@@H](OC(C)=O)[C@H]23)nn1 | SK-N-SH | neuroprotection, MTT |  | 0.6 µM, 24 h, with: 250 µM H2O2 |  | viability | 61.2 ± 0.8% |
| CC[C@H](C)[C@@H](OC(=O)[C@@H](NC(=O)[C@H](C)OCc1ccccc1)C(C)C)C(=O)N[C@@H](C(=O)O[C@@H](C)C(=O)N[C@H](C(=O)O[C@@H](C(=O)N[C@@H](C(=O)OC(C)(C)C)C(C)C)[C@@H](C)CC)C(C)C)C(C)C | P388 | cell growth | DMSO |  |  | ED50 | > 10 µg/mL |
| [Cl][Ag].[Se]=c1n(C2CCCCC2)ccn1C1CCCCC1 | LoVo MDR | MTT |  |  | reference: LoVo MDR over LoVo | resistance factor | 1.5 |
| COC(=O)C1=CO[C@@H](O)[C@@H]2C(Cn3cc(C(O)(c4ccccc4)c4ccccc4)nn3)=CC[C@H]12 | SK-N-SH | neuroprotection, MTT |  | 0.6 µM, 24 h, with: 250 µM H2O2 |  | viability | 69.2 ± 1.7% |
| CSCC[C@H](NC(=O)[C@H](CC(C)C)NC(=O)[C@H](Cc1c[nH]cn1)NC(=O)CNC(=O)[C@@H](NC(=O)[C@H](C)NC(=O)[C@H](Cc1c[nH]c2ccccc12)NC(=O)[C@H](CCC(N)=O)NC(=O)CCCCCCCNC(=O)[C@@H](CO)NC(=O)[C@@H](CO)NC(=O)[C@@H](CCCCNC(=O)Cn1ccnc1[N+](=O)[O-])NC(=O)CN1CCN(CC(=O)O)CCN(CC(=O)O)CCN(CC(=O)O)CC1)C(C)C)C(N)=O [indium-111 labelled] | PC-3 |  |  | 8 h | reference: hypoxic over normoxic | hypoxia enhancement factor | 1.95 ± 0.28 |
| COC(=O)C1=CO[C@@H](OC(C)=O)[C@@H]2C(Cn3cc(C4(O)CCCCC4)nn3)=CC[C@H]12 | SK-N-SH | neuroprotection, MTT |  | 0.15 µM, 24 h, with: 250 µM H2O2 |  | viability | 69.2 ± 1.1% |
| CCCCCCCCCCCCCC(=O)NCC(=O)N[C@@H](CCCNC(=N)N)C(=O)N[C@@H](Cc1c[nH]c2ccccc12)C(=O)N[C@@H](CCCCN)C(=O)N[C@H](C(=O)N[C@@H](Cc1ccccc1)C(=O)N[C@@H](CCCCN)C(=O)N[C@@H](CCCCN)C(=O)N[C@H](C(=O)N[C@@H](CCC(=O)O)C(=O)N[C@@H](CCCCN)C(=O)N[C@H](C(=O)NCC(=O)N[C@@H](CCC(N)=O)C(=O)N[C@@H](CC(N)=O)C(=O)N[C@H](C(=O)N[C@@H](CCCNC(=N)N)C(=O)N[C@@H](CC(=O)O)C(=O)NCC(=O)N[C@H](C(=O)N[C@H](C(=O)N[C@@H](CCCCN)C(=O)N[C@@H](C)C(=O)NCC(=O)N1CCC[C@H]1C(=O)N[C@@H](C)C(=O)N[C@H](C(=O)N[C@@H](C)C(=O)N[C@H](C(=O)N[C@H](C(=O)NCC(=O)N[C@@H](CCC(N)=O)C(=O)N[C@@H](C)C(=O)N[C@@H](C)C(=O)N[C@H](C(=O)N[C@H](C(N)=O)[C@@H](C)CC)[C@@H](C)O)C(C)C)C(C)C)C(C)C)C(C)C)[C@@H](C)CC)[C@@H](C)CC)C(C)C)[C@@H](C)CC)[C@@H](C)CC | Jurkat | western blot |  | 3 µM, 16 h |  | cleaved PARP | > 40% |
| CC/C=C\C/C=C\C/C=C\C/C=C\C/C=C\C/C=C\CCC(=O)Nc1ccn(C2OC(CO)C(O)C2(F)F)c(=O)n1 (stereo not drawn) | OVCAR-8 | NCI60 screen |  |  |  | CC50 | 43.2 µM |
